Assay results of several laboratories.
Several values in a cell are separate wells, animals, samples, runs or records. ± marks the error that the study gave.
MAP3K4: Mitogen-activated protein kinase kinase kinase 4 (MAP3K4, Homo sapiens, UniProt Q9Y6R4)
UniProt Q9UM07, sequence (whole entry, looked up): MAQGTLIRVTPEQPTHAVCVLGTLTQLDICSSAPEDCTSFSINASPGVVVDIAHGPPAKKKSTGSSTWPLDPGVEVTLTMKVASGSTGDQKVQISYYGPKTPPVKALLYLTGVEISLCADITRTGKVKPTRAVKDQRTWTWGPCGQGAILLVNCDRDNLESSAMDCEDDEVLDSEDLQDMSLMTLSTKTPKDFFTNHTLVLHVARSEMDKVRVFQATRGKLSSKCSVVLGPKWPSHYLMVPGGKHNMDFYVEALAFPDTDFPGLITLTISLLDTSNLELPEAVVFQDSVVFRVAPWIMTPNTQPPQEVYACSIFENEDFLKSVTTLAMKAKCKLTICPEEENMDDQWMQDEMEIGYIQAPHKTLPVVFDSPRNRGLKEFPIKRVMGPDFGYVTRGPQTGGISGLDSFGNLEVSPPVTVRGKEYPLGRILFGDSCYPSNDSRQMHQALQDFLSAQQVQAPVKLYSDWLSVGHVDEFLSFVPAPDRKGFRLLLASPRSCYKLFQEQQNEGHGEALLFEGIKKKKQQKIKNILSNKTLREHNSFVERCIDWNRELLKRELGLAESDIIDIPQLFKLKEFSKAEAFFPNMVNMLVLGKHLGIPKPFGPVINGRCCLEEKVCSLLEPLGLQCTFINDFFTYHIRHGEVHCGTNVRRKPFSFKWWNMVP
UniProt Q9Y6R4, sequence (whole entry, looked up): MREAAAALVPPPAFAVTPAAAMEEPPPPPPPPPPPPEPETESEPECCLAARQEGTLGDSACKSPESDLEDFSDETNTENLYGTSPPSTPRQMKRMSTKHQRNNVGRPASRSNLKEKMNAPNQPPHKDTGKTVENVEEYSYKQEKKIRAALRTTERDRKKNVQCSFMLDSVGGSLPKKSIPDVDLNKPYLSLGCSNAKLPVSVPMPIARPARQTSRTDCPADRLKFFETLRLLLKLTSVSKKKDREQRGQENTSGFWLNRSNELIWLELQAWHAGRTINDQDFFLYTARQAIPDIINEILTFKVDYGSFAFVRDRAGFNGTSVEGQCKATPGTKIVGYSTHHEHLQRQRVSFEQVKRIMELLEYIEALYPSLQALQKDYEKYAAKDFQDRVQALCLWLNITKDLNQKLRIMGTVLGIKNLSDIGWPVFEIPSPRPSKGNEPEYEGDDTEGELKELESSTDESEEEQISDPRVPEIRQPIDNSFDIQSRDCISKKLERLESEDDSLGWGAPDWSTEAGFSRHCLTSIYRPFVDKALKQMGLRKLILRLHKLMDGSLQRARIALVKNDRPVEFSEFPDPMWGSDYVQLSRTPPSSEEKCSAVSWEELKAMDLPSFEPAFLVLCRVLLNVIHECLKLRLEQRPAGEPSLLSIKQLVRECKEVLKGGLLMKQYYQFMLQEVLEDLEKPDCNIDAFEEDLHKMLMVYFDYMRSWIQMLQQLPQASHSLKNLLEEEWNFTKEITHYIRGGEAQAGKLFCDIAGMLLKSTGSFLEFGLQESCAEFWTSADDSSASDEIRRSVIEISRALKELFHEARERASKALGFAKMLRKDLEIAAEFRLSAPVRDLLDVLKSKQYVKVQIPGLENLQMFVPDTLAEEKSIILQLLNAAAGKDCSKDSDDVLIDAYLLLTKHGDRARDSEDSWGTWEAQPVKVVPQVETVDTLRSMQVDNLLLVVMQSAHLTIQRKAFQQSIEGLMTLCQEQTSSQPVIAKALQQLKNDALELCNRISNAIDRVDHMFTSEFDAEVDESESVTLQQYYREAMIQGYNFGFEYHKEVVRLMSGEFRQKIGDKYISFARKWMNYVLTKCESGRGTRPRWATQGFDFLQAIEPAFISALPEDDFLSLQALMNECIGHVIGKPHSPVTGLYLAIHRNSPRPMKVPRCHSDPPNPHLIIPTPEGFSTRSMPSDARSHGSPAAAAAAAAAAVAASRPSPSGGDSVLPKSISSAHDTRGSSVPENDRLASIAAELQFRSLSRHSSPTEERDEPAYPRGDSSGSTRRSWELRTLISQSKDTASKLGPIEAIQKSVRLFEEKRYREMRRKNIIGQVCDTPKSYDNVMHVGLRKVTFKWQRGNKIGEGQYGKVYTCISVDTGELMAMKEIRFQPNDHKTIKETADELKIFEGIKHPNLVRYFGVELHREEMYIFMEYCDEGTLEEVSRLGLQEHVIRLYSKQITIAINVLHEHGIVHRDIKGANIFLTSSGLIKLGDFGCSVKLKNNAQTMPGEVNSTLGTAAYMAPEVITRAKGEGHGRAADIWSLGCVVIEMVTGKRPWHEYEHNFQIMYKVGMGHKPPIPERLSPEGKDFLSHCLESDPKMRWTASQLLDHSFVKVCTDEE
UniProt P50391, sequence (whole entry, looked up): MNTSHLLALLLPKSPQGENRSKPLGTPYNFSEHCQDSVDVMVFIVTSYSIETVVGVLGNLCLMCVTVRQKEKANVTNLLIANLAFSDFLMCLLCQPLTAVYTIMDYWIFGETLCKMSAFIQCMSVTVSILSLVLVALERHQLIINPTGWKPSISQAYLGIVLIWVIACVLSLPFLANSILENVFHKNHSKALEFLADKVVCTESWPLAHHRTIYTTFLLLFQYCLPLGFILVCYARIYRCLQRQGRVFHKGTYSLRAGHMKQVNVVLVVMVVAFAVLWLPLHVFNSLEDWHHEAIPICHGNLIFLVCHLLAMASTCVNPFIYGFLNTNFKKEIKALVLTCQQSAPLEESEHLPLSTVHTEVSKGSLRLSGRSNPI
UniProt P25101, sequence (whole entry, looked up): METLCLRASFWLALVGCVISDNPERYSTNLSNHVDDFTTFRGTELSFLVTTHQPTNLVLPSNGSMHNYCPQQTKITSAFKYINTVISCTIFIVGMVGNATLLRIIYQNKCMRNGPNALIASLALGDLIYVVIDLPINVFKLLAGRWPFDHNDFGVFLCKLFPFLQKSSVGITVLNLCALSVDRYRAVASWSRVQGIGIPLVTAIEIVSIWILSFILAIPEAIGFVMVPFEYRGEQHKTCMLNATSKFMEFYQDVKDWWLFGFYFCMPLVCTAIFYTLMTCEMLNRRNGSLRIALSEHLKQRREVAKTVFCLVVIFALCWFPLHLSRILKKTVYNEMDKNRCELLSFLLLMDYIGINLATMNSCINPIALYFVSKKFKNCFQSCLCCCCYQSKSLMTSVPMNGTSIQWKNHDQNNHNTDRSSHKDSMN
UniProt P41143, sequence (whole entry, unmodified, looked up): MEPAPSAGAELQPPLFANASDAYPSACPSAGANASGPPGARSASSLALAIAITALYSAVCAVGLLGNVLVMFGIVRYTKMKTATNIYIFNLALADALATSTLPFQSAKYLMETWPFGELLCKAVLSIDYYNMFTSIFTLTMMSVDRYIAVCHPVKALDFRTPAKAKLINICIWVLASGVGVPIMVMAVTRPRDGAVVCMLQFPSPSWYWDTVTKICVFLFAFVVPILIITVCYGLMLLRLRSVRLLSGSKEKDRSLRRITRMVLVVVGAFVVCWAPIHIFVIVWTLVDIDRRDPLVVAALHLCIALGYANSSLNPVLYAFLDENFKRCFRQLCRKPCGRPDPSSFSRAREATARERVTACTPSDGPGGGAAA
UniProt P21554, sequence (whole entry, unmodified, looked up): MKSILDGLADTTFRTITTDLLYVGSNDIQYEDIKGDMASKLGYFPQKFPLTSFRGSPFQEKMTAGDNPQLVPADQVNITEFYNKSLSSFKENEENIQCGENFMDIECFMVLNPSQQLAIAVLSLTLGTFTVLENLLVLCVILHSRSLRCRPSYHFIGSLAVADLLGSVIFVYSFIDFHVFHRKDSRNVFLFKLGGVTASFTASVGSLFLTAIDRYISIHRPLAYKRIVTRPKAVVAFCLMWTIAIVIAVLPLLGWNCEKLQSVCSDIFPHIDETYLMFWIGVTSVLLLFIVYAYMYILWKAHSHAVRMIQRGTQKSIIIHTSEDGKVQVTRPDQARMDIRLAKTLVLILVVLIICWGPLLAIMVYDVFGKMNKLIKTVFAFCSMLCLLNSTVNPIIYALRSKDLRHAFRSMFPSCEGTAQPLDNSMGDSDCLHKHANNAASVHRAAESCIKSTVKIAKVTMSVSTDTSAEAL
UniProt O60331, sequence (whole entry, looked up): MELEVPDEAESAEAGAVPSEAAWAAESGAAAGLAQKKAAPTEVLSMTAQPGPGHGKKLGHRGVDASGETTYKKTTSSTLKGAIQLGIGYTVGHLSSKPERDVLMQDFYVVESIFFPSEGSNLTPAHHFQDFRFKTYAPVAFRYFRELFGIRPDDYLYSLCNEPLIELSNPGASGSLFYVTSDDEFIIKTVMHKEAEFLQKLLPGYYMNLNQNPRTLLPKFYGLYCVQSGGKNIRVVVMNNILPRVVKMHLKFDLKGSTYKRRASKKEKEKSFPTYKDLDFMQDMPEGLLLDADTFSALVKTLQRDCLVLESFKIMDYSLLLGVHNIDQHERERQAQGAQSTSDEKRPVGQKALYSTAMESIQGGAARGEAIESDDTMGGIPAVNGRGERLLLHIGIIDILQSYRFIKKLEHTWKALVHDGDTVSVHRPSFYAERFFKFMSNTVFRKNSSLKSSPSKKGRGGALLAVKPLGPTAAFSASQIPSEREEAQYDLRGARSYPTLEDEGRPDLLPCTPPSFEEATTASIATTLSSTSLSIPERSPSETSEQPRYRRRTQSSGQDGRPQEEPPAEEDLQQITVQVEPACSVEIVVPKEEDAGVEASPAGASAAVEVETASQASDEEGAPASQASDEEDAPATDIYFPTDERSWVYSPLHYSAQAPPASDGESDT
UniProt Q8VEB4, sequence (whole entry, looked up): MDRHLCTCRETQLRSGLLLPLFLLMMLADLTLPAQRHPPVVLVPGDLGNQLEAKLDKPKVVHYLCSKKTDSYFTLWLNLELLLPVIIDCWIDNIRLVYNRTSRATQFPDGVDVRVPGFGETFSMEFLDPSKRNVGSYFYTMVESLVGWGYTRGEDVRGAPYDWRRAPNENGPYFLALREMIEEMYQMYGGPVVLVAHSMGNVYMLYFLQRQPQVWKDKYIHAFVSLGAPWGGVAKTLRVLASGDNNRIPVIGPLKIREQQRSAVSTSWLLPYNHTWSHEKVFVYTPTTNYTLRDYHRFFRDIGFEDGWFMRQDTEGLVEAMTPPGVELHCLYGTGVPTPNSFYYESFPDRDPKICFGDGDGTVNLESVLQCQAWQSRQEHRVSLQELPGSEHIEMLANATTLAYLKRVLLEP

With CN(C)CC#CCC(O)(c1ccccc1)C1CCCC1.Cl (stereo not shown) the translation activity was 97.9% and 100% and 102% and 106% (Trypanosoma cruzi; reporter mRNA translation, inhibitor, item: capped polyadenylated Renilla luciferase mRNA; cell-free extract; concentration not given; baseline: positive over negative control).
With COc1ccccc1-c1n[nH]c2nc(NC3CCN(C(=O)Cc4ccc(F)cc4F)CC3)ncc12 the relative abundance was 0.94 (bead binding, competition bead pull-down, item: LINJ.10.0480; Leishmania donovani axenic amastigote extract; 10 µM; baseline: vehicle).
CCCC1COC(Cn2cncn2)(c2ccc(Cl)cc2Cl)O1 (stereo not shown) has a translation activity of 127% and 104% (Trypanosoma cruzi; reporter mRNA translation, inhibitor, item: Renilla luciferase mRNA; cell-free extract; concentration not given, test 2; baseline: positive over negative control).
CN(C)[C@H]1C[C@@]23CC[C@@]4(O2)C(=CC[C@]2(C)[C@@H](c5ccc6ccncc6c5)CC[C@H]24)C=C3[C@@H](O)[C@@H]1O gave an inhibition of 0.1% (MAP2K2 (Homo sapiens, UniProt P36507); ATP probe labelling, inhibitor, KiNativ profiling; 1 µM).
Nc1ccc(/C=C/C(=O)N2CCc3c(oc4c(-c5ccc(F)cc5)cc(-c5ccc(C(=O)N6CCC(F)(F)CC6)cn5)cc34)C2)cn1 has a remaining binding of 100% (MAP3K4; binding, competition with immobilised ligand; 1 µM).
The Kb of CC(=O)N[C@@H](CCCNC(=N)N)C(=O)N[C@@H](Cc1ccc(O)cc1)C(=O)N[C@@H](CCCNC(=N)NC(=O)NCCCCN)C(=O)N[C@@H](CC(C)C)C(=O)N[C@H](CCCNC(=N)N)C(=O)N[C@@H](Cc1ccc(O)cc1)C(N)=O is reported as 737 nM (NPY4R (Homo sapiens, UniProt P50391); calcium signal, antagonist).
Cc1cc(O)cc(C)c1C[C@H](N)C(=O)N[C@H](CCCNC(=N)N)C(=O)N[C@@H](Cc1ccccc1)C(=O)N(C)CC(=O)N(C)Cc1cc(C(F)(F)F)cc(C(F)(F)F)c1 gave a Ki of 7.07 ± 0.57 nM (OPRD1 (Homo sapiens, UniProt P41143, Y308A)).
The remaining activity of O=C1NC(=O)c2c1c1cc(F)c[n+]3c1c1c2c2cc(O)ccc2[n]1[Ru-4]312([N]=C=S)[S+]3CC[S+]1CC[S+]2CC3 (stereo not shown) is reported as 71% (HASPIN (Homo sapiens, UniProt Q8TF76); enzyme activity; 100 nM, human enzyme, together with: 10 µM ATP; baseline: untreated).
N[C@H](C(=O)N1CCCC1)C1CCN(c2nccc3c(-c4ncc(Cl)cc4Cl)cccc23)CC1 gave a kcat of 0.614 s⁻¹ and 0.636 s⁻¹ (PADI4 (Homo sapiens, UniProt Q9UM07); enzyme activity; 0.01573 µM, together with: Ca2+ 0.25 mM).
For CC(C)CC(O)(CC(C)C)c1cn(C(=O)N2CCCC2)nn1, the activity ratio-of-ratios was 1.92 (Lysosomal phospholipase A and acyltransferase (Pla2g15, Mus musculus, UniProt Q8VEB4); probe labelling, inhibitor, item: Lypla3; mouse, brain; i.p., 0.8 mg/kg, 4 h, protein level; baseline: treated over vehicle mice, lower = stronger inhibition).
The inhibition of CS(C)(=O)=Nc1ccc(-c2ccc(-c3nc4cc(O[C@@H]5CO[C@H]6[C@@H]5OC[C@H]6O)[nH]c4cc3F)cc2)cc1 is reported as -5% (PIP5K1C (Homo sapiens, UniProt O60331); enzyme activity, inhibitor; 10 µM).
The remaining binding of Cc1sc2c(c1C)C(c1ccc(Cl)cc1)=NC(CC(=O)OC(C)(C)C)c1nnc(C)n1-2 (stereo not shown) is reported as 83.7% (EDNRA (Homo sapiens, UniProt P25101); ligand displacement, radioligand; 1 µM).
CSCC[C@@H]1NC(=O)[C@@H]2CCCN2C(=O)[C@H](C(C)C)NC(=O)[C@@H](NC(=S)Nc2ccc(CC3CN(CC(=O)O)CCN(CC(=O)O)CCN3CC(=O)O)cc2)CSSC[C@@H](C(=O)O)NC(=O)[C@H](C)NC(=O)[C@H](CCCNC(=N)N)NC(=O)[C@H](Cc2ccc(O)cc2)NC(=O)[C@H]([C@@H](C)O)NC1=O (stereo partly shown) [gallium-68 labelled] — result for “tumour to blood ratio”: 1.54 ± 0.31 (PET imaging; mouse bearing B16-F10 tumour; intravenous, 1 h).
For CC(C)[C@H]1NC(=O)C[C@H]2/C=C/CCSSC[C@@H](NC1=O)C(=O)N[C@H](Cc1cccc3ccccc13)C(=O)NCC(=O)O2, the inhibition was -1.2% (MAP3K4; 10 µM).
Cc1ccc2c(C(C[N+](=O)[O-])c3cccs3)c(-c3ccccc3)[nH]c2c1 (stereo not shown) has an Emax of 43.1 ± 0.46% (CNR1 (Homo sapiens, UniProt P21554, I245A); Gαi1-γ2 dissociation, BRET).
O=C1NC2(CC2)COc2ncc(F)cc2[C@H]2COCCN2c2ccn3ncc1c3n2: “organ-to-brain weight ratio” 73 ± 7.74% (Sprague-Dawley rat, male, heart; oral, 5 mg/kg/day, 4 weeks, end of treatment).

Repeated from above:
CSCC[C@@H]1NC(=O)[C@@H]2CCCN2C(=O)[C@H](C(C)C)NC(=O)[C@@H](NC(=S)Nc2ccc(CC3CN(CC(=O)O)CCN(CC(=O)O)CCN3CC(=O)O)cc2)CSSC[C@@H](C(=O)O)NC(=O)[C@H](C)NC(=O)[C@H](CCCNC(=N)N)NC(=O)[C@H](Cc2ccc(O)cc2)NC(=O)[C@H]([C@@H](C)O)NC1=O (stereo partly shown) [gallium-68 labelled] — result for “tumour to blood ratio”: 1.54 ± 0.31 (PET imaging; mouse bearing B16-F10 tumour; intravenous, 1 h).
The remaining binding of Cc1sc2c(c1C)C(c1ccc(Cl)cc1)=NC(CC(=O)OC(C)(C)C)c1nnc(C)n1-2 (stereo not shown) is reported as 83.7% (EDNRA (Homo sapiens, UniProt P25101); ligand displacement, radioligand; 1 µM).
With COc1ccccc1-c1n[nH]c2nc(NC3CCN(C(=O)Cc4ccc(F)cc4F)CC3)ncc12 the relative abundance was 0.94 (bead binding, competition bead pull-down, item: LINJ.10.0480; Leishmania donovani axenic amastigote extract; 10 µM; baseline: vehicle).
